Measured values gathered from unrelated publications.
Numbered parts are unrelated; each lists some results of a single study.

Series 1
Target: Histone acetyltransferase KAT6A, both winged helices, GST fusion (KAT6A, Homo sapiens, UniProt Q92794, residues 1-181)
Method: protein binding microarray
Form: double-stranded DNA, one strand shown
Matrix: in vitro
Concentration: not given
Setting: 8-mer, flanks averaged, mean of 2 arrays, mostly near background
Relative to: not given
Direction: higher = stronger binding
Construct (chain): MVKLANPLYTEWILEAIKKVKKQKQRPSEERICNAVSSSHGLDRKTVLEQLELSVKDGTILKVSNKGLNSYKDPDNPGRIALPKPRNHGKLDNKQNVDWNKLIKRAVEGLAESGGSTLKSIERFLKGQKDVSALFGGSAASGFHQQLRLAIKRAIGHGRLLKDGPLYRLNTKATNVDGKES
Sequence	E-score
CAGTTAAG	-0.121
ACTGTTAC	-0.0317
AGGTTCAT	-0.111
CTTAGCCC	-0.039
ATAGCTCC	-0.187
GTTGTCAA	-0.167
CTAATTTA	0.00413
GGCGGCAA	0.255
AAGAAATC	-0.164
CAGGGTAG	-0.174
AACTACAG	-0.00151
GGCTAATA	0.0568
GCATTTCC	0.0117
CCTGAGCG	0.163
ACCGGAGC	0.123
ATTGGCCC	-0.137
CCCTTAGC	0.0118

Series 2
Target: RING finger protein unkempt homolog, zinc fingers 1-6, GST-SBP tag (UNK, Homo sapiens, UniProt Q9C0B0, residues 30-357)
Sequence of UniProt Q9C0B0 (30-357, looked up): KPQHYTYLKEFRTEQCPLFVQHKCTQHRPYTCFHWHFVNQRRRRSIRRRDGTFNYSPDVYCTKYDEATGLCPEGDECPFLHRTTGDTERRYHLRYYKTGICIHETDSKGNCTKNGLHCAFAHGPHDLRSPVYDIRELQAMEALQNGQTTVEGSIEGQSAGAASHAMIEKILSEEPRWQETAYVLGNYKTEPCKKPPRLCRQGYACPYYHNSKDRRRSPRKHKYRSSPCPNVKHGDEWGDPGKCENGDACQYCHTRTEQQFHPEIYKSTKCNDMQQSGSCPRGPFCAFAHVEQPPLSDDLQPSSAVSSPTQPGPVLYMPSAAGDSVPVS
Method: RNA Bind-n-Seq
Form: RNA
Matrix: in vitro
Concentration: not given
Setting: RNA with constant flanks, human and mouse sites, ends assumed
Relative to: input RNA pool
Direction: higher = stronger binding
All sequences stand within: GGGAGUUCUACAGUCCGACGAUC … CAACAGAGGAUUGAGCAUCA
Sequence	bound/input enrichment
GGUGUUGCUGGAGUAGGGGCUGGUCUGGCAUAUCUAAUAAGAUAGCCUUGUGAGUGCAAUAGGGGACUCUUAAAGCUCCAGCCACCAAACUACAUGCAUCUGUGAAAACAUGUGUAUUUA	0.167 ratio
CCAGAAGUCGAGUCCCUGCAGGACUACAAGAACACCUUUCCCAAGUGGAAGCCGGGGAGCCUCGCAUCCCACGUCAAGAACCUGGACGAGAACGGCUUGGAUUUGCUCUCAAAAAUGCUA	0.183 ratio
UGAUGAACGCAGACACGAUGAGCUCCCUGAAGACAUCAACAACUUUGACGAAGACAUGAACAGGCAGUUUGAGAAUAUGAACCUGCUGGAUCAGGUGGAGUUGCUUGCACAGAGCUACAG	0.109 ratio
GCUGUUCCCUUCUUUAGCUCCCUUCAGUAUAGCAGAAGAACAGAAAGUUCAAGGUCUACUGAGGGUCACAUGCCCAUUAAUCUAGCCCUGGAGGGGAUAAGGAGGCACUGCUUCCCUUUA	0.424 ratio
UUUAUAAGUCCAGAGUCUGGUUUUUAACAAGCUGUUCUUCAGUAUUCAGCUUAAGAUAGGCAACUCUUUUCUGUACAUAGUGUACAUUACAACUAAAAGUAAUGGGAAACACUGUAUUUU	0.196 ratio
AGCUUGGAUUCUAAGGCGAAUAUUGUACAUGGUCUGUCAGUCUUGGAAAUCUGUCUUAUAAUAGCAAUGAAACAUUUAAAUGACAUAUAUGAAGAGGAGCCCUUUAAUUUUCAAAUGGUG	3.89 ratio
AGUUGGCGCUUCAGCAGCUGAAUGCCGUUGCCUCCCAUGGUUCAACACCACCUUAUACUUUUUUAAAUCAGGCAUUCUUGAAAGUAGCCAUGUCGAGACCCAGGUUUAAUCCUCGAGGGA	0.394 ratio
AGCAUGGACUCGAAAGCAAAUAUUGUACAUGGUCUAUCAGUCUUGGAAAUCUGUCUUAUAAUAGCAAUGAAACAUUUAAAUGACAUCUAUGAGGAAGAGCCAUUUAAUUUUCAAAUGGUC	0.413 ratio
UGGACAGCUGAUAAAUUUAAUCCUUCUUUGUAAUACUUUCUAUGUGACAUUUCUCUUCCCCUUAGAAACACUGCAAAUUUUAACUGUAGGUAUGAUCUCUUCUGGUGUUGACUGGACUGC	9.21 ratio
GCACGCCUUGCUAGUUUAAUGAAUCUUGGAAUGAGUUCUUCAUUGAAUCAACAAGGAGCUCAUAGUGCACUGUCUUCUGCUAGUACUUCUUCCCAUAAUUUGCAGUCUAUAUUUAACAUU	0.628 ratio
ACAGAUGAAGCUGACCUGGUUCUUGCAAAAGAAGCUAACGUGAAGUGUCCACAGAUUGUGAUAGCAUUUUAUGAAGAGAGACUGACGUGGCACGCAUAUCCAGAGGAUGCGGAAAACAAA	0.215 ratio

Series 3
Target: Prothrombin, mature alpha-thrombin (F2, Homo sapiens, UniProt P00734)
Method: aptamer microarray, sandwich
Form: DNA with 2'F-ANA
Matrix: in vitro
Concentration: 200 nM
Setting: whole 15-mer aptamer, many near background
With: Cy3 exosite-II aptamer, 400 nM
Direction: higher = stronger binding
Sequence: GGTTGGTGTGGTTGG
Modification	mean fluorescence intensity
2'F-ANA at 3 4 7 9 11 13 14 15	277 a.u.
2'F-ANA at 1 3 5 10 12 13 15	46 a.u.
2'F-ANA at 3 4 8 10 12 13 14	461 a.u.
2'F-ANA at 1 3 5 7 8 9 10 12 14 15	46.2 a.u.
2'F-ANA at 2 3 5 9 10 11 13 15	49.6 a.u.
2'F-ANA at 1 2 6 7 11 13 15	98 a.u.
2'F-ANA at 2 4 5 6 9 10 12 13 14 15	48 a.u.
2'F-ANA at 1 2 6 8 9 10 11 12 14 15	68.7 a.u.
2'F-ANA at 5 6 8 9 10 13	47 a.u.
2'F-ANA at 2 3 7 8 9 11 12 15	912 a.u.
2'F-ANA at 2 4 5 7 8 9 13 15	84.2 a.u.
2'F-ANA at 1 3 4 5 6 8 10 11 12 13	52.3 a.u.
2'F-ANA at 5 7 9 10 11 13 15	47.3 a.u.
2'F-ANA at 2 4 5 8 9 10 13	62 a.u.
2'F-ANA at 3 4 7 12	985 a.u.
2'F-ANA at 2 3 6 12 13 14 15	376 a.u.
2'F-ANA at 1 4 5 12 13 14	44.9 a.u.

Series 4
Target: RNA binding protein fox-1 homolog 2, RRM domain, GST-SBP tag (RBFOX2, Homo sapiens, UniProt O43251-10, residues 100-194)
Method: RNA Bind-n-Seq
Form: RNA
Matrix: in vitro
Concentration: 365 nM
Setting: natural RNA segment, single round, ends assumed
Relative to: no-protein control
Direction: higher = stronger binding
All sequences stand within: GGGAGUUCUACAGUCCGACGAUC … UGGAAUUCUCGGGUGCCAA
Residues (chain): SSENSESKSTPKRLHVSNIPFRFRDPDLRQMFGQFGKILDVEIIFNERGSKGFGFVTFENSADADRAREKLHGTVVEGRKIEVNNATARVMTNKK
Sequence	RBNS enrichment (R)
GUUUUAUUCCUAUUUAAUGUUAUUGACUAUAGCAGAUUUUGGAAAUCAGUGUUUUCCAUGUGACCCUCUUUCCUUGCAUCCCUAUUCCUUGUCCCCCACCCACUCUUCCC	2.53
UUCCUUUUUCAAGACAACACCUGCCUGGCUUCUAUUAAUGUGUGCUGGCCAUGAUAUUGCCCCAAAUCCGCCCCACUGAAGUGUUCCCUAAGGAACAGCAUUUCUCUGCU	1.08
CUAGGCGCUGACAUUAACAGGAGCAACCAGGGCCCAAUUCCUGGCCUUGGAGCUCAAAUCUUUCCUUUGAUUUUUGCUCCUGAUCAUCAAGGCCCCAGUGGCAACCAUGU	0.341
GUAUCUGAGAAACUAAACAUGUAUUAAAUGUGCUUUUUAAAUAAAAGCUCAUAACACAACUAACCAAGGCACUGGUGCCUGAGCUGUUAAAAGGAUGUUUCUUUGGGAUC	0.357
UGCUUCCUCUCCUGUCAAUUUCAGGAACCUUUGAGGCCCAGUUCCAGCUAUAACCACAAUCCUUGCCUGAGGCCUUUUGAUUUCUGUUUGGCUGUGCCUGGGUAGGGGCA	0.988
CAACAGUCAAAGCAAUUAGAGACCAUACCUAAUAUUGUUUAAAUUCUAGAUGUAGGCUAACAAUGAAAAGUAUUUGCCAAACUGAAUAAAACUGUCAUGGUUACCUUGAA	0.361
GCUACUUGGGAGGCUGAGGCAGGAGAAUCGCCUGAACCCAGGAAGCAGAUGUUGUACCGAGCUGAGAUCAUGCCAUUACACUCCAGCCUGGGCGACAGAACGAGACGCCA	1.73
AAAAAAACAUAUAAGCAAAUUGAAGCAUGAACGUGGAUUGUAUUUAAGACAUAUACAAAGACAAAUGACAGCAAUUCAUGGUUCAAGUAUAAAGCAGUUCAUUCUACCAA	2.25
UCUUGUGUGCCUUCUGAGCUGUUUCUUCAGCCUAGAAACUCCCUGCUCAAAGGCACCUUUGCUUUUGUGAACUCGUUCACCCUAUCCUGUCUCCCCCAGGAUUGCCCCCC	0.435
GCAACUGGUACUCGCUUCUUGGCUGCUGCUUCUGUUGUGAAAAGACGAGCCCAUGUUUCUGCAUGGAUUUCCCAUGGAAGUCCUGUCCUGCUACAGAGGGGAAGAAAGUG	0.311
UCAUUCACCCAUUAGGUAAACAUUCCCUUUUAAAUGUUUGUUUGUUUUUUGAGACAGGAUCUCACUCUGUUGCCAGGGCUGUAGUGCAGUGGUGUGAUCAUAGCUCACUG	0.394
GCUCCUGCCUUUGCCCCCCACUUUAAUCUAAGCACUGGGCCAUGAAAUCUGACACUAAGGUACCCUGAGCAUAGGAGGGGCAUGGGUCGCACCAUUGCACUUUAGAAAUA	1.1

A few entries again (series 1):
Sequence	E-score
CTAATTTA	0.00413
ATAGCTCC	-0.187
CCTGAGCG	0.163
AGGTTCAT	-0.111
CCCTTAGC	0.0118
CAGGGTAG	-0.174
